Published values from different studies.
Each line is one published result; not all experiments were run side by side. “And” joins repeats or separate records; there may be more than shown. Numbers after ± are the reported error.

COc1ccc(-c2cncc(N[C@@H](C)c3cccc(NC(=O)c4cncc(C)c4)c3)n2)cc1OC  delta delta Ct (item: rno-miR-22-3p; rat SU5416/hypoxia model, lung; dose not given, unit not given; baseline: SU5416/hypoxia vehicle): -0.639
N=C(N)NCCC[C@@H](NC(=O)CCOCCOCCNC(=O)[C@H](CCCCNC(=O)CC[C@H](NC(=O)c1ccc(NCc2cnc3nc(N)[nH]c(=O)c3n2)cc1)C(=O)O)NC(=O)CO/N=C/[C@H](F)[C@@H](O)[C@H](O)[C@H](O)CO)C(=O)NCC(=O)N[C@H](CC(=O)O)C(N)=O [fluorine-18 labelled]  tumour washout (female nude mice, MDA-MB-231 xenograft, tumour; 2.5 h): 37%
CC[C@@H]1[C@H](F)C(=O)N[C@@H]1COc1nccc2cc(C(N)=O)c(OC)cc12  inhibition (ATP-site probe binding, ActivX profiling, item: SRPK1, SRPK2; THP-1 cell lysate; 0.2 mM, Lys1 site): -5.5%
Cc1oncc1C(=O)Nc1ccc(C(F)(F)F)cc1  DHO concentration (item: dihydroorotate; female CD-1 mice, pooled urine; oral, 10 mg/kg daily, 8-24 h after dose 1, 10-day dosing): 297 ± 17.2 µM
C[C@H](Oc1ccc(Br)cc1-c1ccon1)C(=O)O  difference from placebo (first response peak; human, tibialis anterior muscle; 400 mg, 30 Hz, single ascending dose): 11%
COC(=O)c1cc(O)c(O)c(O)c1  Hill coefficient (Gunn rat liver microsomes; glucuronidation, metabolite M2): 0.9 ± 0.05
CCN1CCN(Cc2ccc(Nc3ncc(F)c(-c4cc(F)c5nc6n(c5c4)[C@H](C)CCC6)n3)nc2)CC1  progressive disease (human advanced solid tumours; 300 mg, phase Ia monotherapy RECIST 1.1): 33.3%
C[C@H]1C[C@H]2CSC(N)=N[C@@]2(c2nc(NC(=O)c3ccc(OC(F)F)cn3)cs2)CO1  percent change from baseline (item: Aβx-40; healthy adults, plasma; 50 mg once daily, day 10; baseline: placebo): -62.3%
CN(C)C(=O)Oc1cccc([N+](C)(C)C)c1  twitch response (rat cisatracurium-induced neuromuscular block; 0.025 mg/kg): 46.4% and 52.7% and 22.3% and 46.9%
OCC(O)CO  FGF21 level (ELISA; Mus musculus female wild type, serum; drinking water, 5% w/v, 2 days): 240 pg/mL and 202 pg/mL and 538 pg/mL and 264 pg/mL and 513 pg/mL and 235 pg/mL
OC(CCN1CCCCC1)(c1ccccc1)C1CC2C=CC1C2 (stereo not shown)  power, theta EEG, Fz-Cz (resting-state EEG; healthy elderly humans; oral, 4 mg, eyes open, LS mean): 2.8 µV²
Cc1cnc(Nc2ccc(OCCN3CCCC3)cc2)nc1Nc1cccc(S(=O)(=O)NC(C)(C)C)c1  reticulocytes (BALB/c mice rhEPO-induced polycythemia; 120 mg/kg): 10% and 9.44% and 10.8% and 9.97% and 9.37% and 10.1%
O=C(COc1ccc(Cl)cc1)NC12CC(c3nnc([C@H]4C[C@@H](OC(F)(F)F)C4)o3)(C1)C2  CHAC1 mRNA change (healthy human, PBMC; 260 mg once daily, day 14, 4 h post-dose, median, together with: sodium arsenite ex vivo; baseline: baseline): -78.7%
CSCCNc1nc(SCCC(F)(F)F)nc2c1ncn2[C@@H]1O[C@H](COP(=O)(O)OP(=O)(O)C(Cl)(Cl)P(=O)(O)O)[C@@H](O)[C@H]1O  patients with high residual reactivity (platelet aggregation, light transmission aggregometry; human patients, platelet-rich plasma; dose not given, 2 h, aggregation above 46%, together with: ADP 5 µM): 55%
CN(C(=O)n1cnc(-c2ccc[n+]([O-])c2)c1)C1CCCCC1  AUC(0-t) (item: LEA; human, plasma; 100 mg single dose): 408 ng·h/mL
CCc1c(C)nc(-c2ccc(Cl)s2)nc1Nc1ccc(CC(=O)O)cc1  serum AST (mice, chronic ethanol plus binge; intraperitoneal, 0.3 mg/kg daily, ethanol diet 4 weeks, dosed last two; baseline: vehicle): decreased
O=C(NO)c1ccc(CN(c2cnccn2)c2cnccn2)cc1  progression-free survival (human; 200 mg BID): 16.4 months
Cl.O=C(c1cc(Cc2n[nH]c(=O)c3ccccc23)ccc1F)N1CC(CNC2CC2)C1  tumour growth inhibition (BALB/c nude mouse, MX1 xenograft; oral, 50 mg/kg once daily, 23 days): 71%
CC(C)[C@H](C(=O)Nc1ccc(C(=O)NO)cc1)c1ccccc1  tumour volume change (volumetric MRI; human, left cistern meningioma; dose not given, day 23; baseline: baseline): -8.7%
O=C(O)CNC(=O)Cc1ccccc1  sarcomere length (ventricular cardiomyocytes, C57BL/6 mouse; dose not given, 0.62 s): 1.69 µm
COc1ccccc1[C@H](Cn1c(=O)n(C(C)(C)C(=O)O)c(=O)c2c(C)c(-c3ncco3)sc21)OC1CCOCC1  fractional hepatic DNL ([1-13C]acetate infusion, isotopomer analysis; overweight or obese healthy men, plasma VLDL-TG palmitate; oral, 200 mg single dose, 1 h post-dose, together with: oral fructose): 6.21 % new palmitate
Cc1cc(-c2nnc(N)nc2-c2ccc(F)cc2)cc(Cl)n1  GSVA score change (NanoString, item: Macrophages.Prat.IO signature; human mCRPC, peripheral blood; dose not given, 2 or 4 weeks; baseline: baseline, direction not given): -0.138
c1ccc(-c2n[nH]cc2-c2ccnc3ccccc23)nc1  log2 fold change (kinase binding, competitor, MIB/MS competition, item: RCK2; Candida albicans cell lysate; 10 µM; baseline: DMSO): 1.56
Cc1nc(N(Cc2ccccc2)c2ccc3c(c2)/C(=C/c2ccccc2)C(=O)N3Cc2ccccc2)c2ccccc2n1 (mixture of isomers)  tumour weight reduction (mouse LLC syngeneic tumour; ip, 15 mg/kg, 14 days; baseline: vehicle): ~61.1%
N#Cc1ccc2c(-c3ccncc3)c(-c3ccc(F)cc3)nn2c1  log2 fold change (kinase binding, competitor, MIB/MS competition, item: CMK2; Candida albicans cell lysate; 1 µM; baseline: DMSO): -0.0537
C[C@H](NC(=O)c1c(C(F)F)nn(C)c1Oc1cccc(C(F)(F)F)c1)c1ccc(C(=O)O)cc1  partial response (human, advanced tumours; 250 mg, irRECIST): 0%
C[C@]12CC[C@@H]3c4ccc(O)cc4C[C@@H](CCCCCCCCC[S+]([O-])CCCC(F)(F)C(F)(F)F)[C@H]3[C@@H]1CC[C@@H]2O (stereo partly shown)  tumour volume (female nude mouse LCC2 xenograft; 2.0 mg/kg, day 15, tamoxifen-resistant): 124 mm3 and 148 mm3 and 81.2 mm3 and 144 mm3 and 112 mm3 and 98.2 mm3 and 141 mm3
COc1ncc(-c2nc3c(n2C(C)C)[C@H](c2ccc(Cl)cc2)N(c2cc(Cl)cn(C)c2=O)C3=O)c(OC)n1  best overall response (antileukemic activity, item: treatment failure, indeterminate cause; human, acute myeloid leukaemia; 120 mg, high-dose, RDE, IWG criteria): 0%
Cc1cn(-c2ccc3n(c2=O)CCN([C@@H](C)[C@@H]2CC[C@H](c4cc(F)c(Cl)cc4C(F)(F)F)O2)C3=O)cn1  change from baseline (item: amyloid beta 38; human, non-elderly, cerebrospinal fluid; 200 mg once daily, 14 days, sampled 336 h; baseline: placebo): 46.5%
COc1cc(-c2ccccc2)ncc1C(=O)Nc1ccc2c(=O)[nH]c(-c3ccc(C(C)(C)O)cc3)nc2c1  normalized enrichment score (RNA-seq GSEA, item: FALLER_ENTEROCYTE_PRO_MOUSE; organoids, small intestinal, Apc Q1405X, mouse; dose not given, wild-type organoids; baseline: DMSO, direction not given): -1
N#Cc1ccn2c(-c3ccncc3)c(-c3ccc(F)cc3)nc2c1  log2 fold change (kinase binding, competitor, MIB/MS competition, item: KIN3; Candida albicans cell lysate; 1 µM; baseline: DMSO): 0.0486
NC(=O)c1cnc2[nH]ccc2c1N[C@@H]1[C@@H]2CC3C[C@H]1C[C@@](O)(C3)C2  change from baseline (flow cytometry, item: CD8+ naive T cells; Japanese healthy subjects, peripheral blood; oral, 10 mg twice daily, day 7): -0.7%
O=C(OC(C(F)(F)F)C(F)(F)F)N1CCN(Cc2cccc(Oc3ccccc3)c2)CC1  volume of distribution (PET blocking study; rhesus monkey, brain thalamus; intravenous, 0.3 mg/kg, compound pretreatment, together with: [18F]T-401 tracer): 1.32 mL/cm3
C[C@@H](O)CCOC(=O)C[C@@H](C)O  metabolite level (human, plasma; 60 min, log2-transformed values): 4.54 ± 0.25 µmol/L
COC(=O)CCc1ccc(OCC(O)CNC(C)C)cc1 (stereo not shown)  heart rate (healthy male humans; concentration not given, 15 min, baseline before dosing, together with: saline): 59.3 beats/min
Cc1cc(/C=C2\Oc3cc(OCC4CC4)ccc3C2=O)cc(C)c1OC(C)(C)C(=O)O  serum TC, TG, AST and ALT (db/db mice on MCD diet; oral, 30 mg/kg daily, 45 days; baseline: untreated model): decreased
C[C@H]1O[C@@H](O[C@H]2CC[C@@]3(C)[C@@H](CC[C@]4(C)[C@@H]3C=C[C@]35OC[C@@]6(CCC(C)(C)C[C@H]63)[C@@H](O)C[C@]54C)[C@]2(C)CO)[C@H](O)[C@@H](O[C@@H]2O[C@H](CO)[C@@H](O)[C@H](O)[C@H]2O)[C@H]1O  total cholesterol (chronic-plus-binge ethanol mice, plasma; oral, 15 mg/kg/day for 7 d, 168 h): 1.68 mM and 1.61 mM and 1.48 mM and 1.21 mM and 1.35 mM and 1.46 mM
CC(=O)NCC(=O)NCC(=O)N[C@H](C(=O)N[C@@H](Cc1ccc(O)cc1)C(=O)N[C@@H](CO)C(=O)N[C@H]1CSSC[C@@H](C(=O)N[C@@H](CCCNC(=N)N)C(=O)N2CCC[C@H]2C(=O)N[C@@H](CCC(N)=O)C(=O)N[C@@H](CCCNC(=N)N)C(=O)NCC(=O)NCCC(=O)N[C@@H](CCCCNC(=O)CN(CC(=O)NCCCC[C@H](NC(=O)CCNC(=O)CNC(=O)[C@H](CCCNC(=N)N)NC(=O)[C@H](CCC(N)=O)NC(=O)[C@@H]2CCCN2C(=O)[C@H](CCCNC(=N)N)NC(=O)[C@@H]2CSSC[C@H](NC(=O)[C@H](CO)NC(=O)[C@H](Cc3ccc(O)cc3)NC(=O)[C@@H](NC(=O)CNC(=O)CNC(C)=O)[C@@H](C)O)C(=O)N[C@@H](Cc3c[nH]cn3)C(=O)N[C@@H](Cc3ccccc3)C(=O)NCC(=O)N[C@@H](C)C(=O)N[C@@H](CC(C)C)C(=O)N[C@@H]([C@@H](C)O)C(=O)N[C@@H](Cc3c[nH]c4ccccc34)C(=O)N[C@@H](C(C)C)C(=O)N2)C(N)=O)C(=O)CCN)C(N)=O)NC(=O)[C@H](C(C)C)NC(=O)[C@H](Cc2c[nH]c3ccccc23)NC(=O)[C@H]([C@@H](C)O)NC(=O)[C@H](CC(C)C)NC(=O)[C@H](C)NC(=O)CNC(=O)[C@H](Cc2ccccc2)NC(=O)[C@H](Cc2c[nH]cn2)NC1=O)[C@@H](C)O  reticulocytes (healthy BALB/c mice; subcutaneous, 0.08 mg/kg, 8 d, single dose): 5.5%
COc1ccc(F)cc1C(=O)NCc1ccc(-c2nn([C@@H](C)C(F)(F)F)c(N)c2C(N)=O)cc1  tumour growth inhibition (mouse Rec1 xenograft; oral, 10 mg/kg twice daily): 80%
Cc1cc(Nc2cc3ncccc3c(N[C@@H]3C[C@H]4CC[C@@H](C3)N4CCC#N)n2)n[nH]1  change in total Mayo (moderate-severe ulcerative colitis patients; 80 mg, day 28, unit not given; baseline: baseline): -1.6
O=C(O)CCc1nccc2c3ccccc3n(Cc3ccc(Br)c4ccccc34)c12  decrease in serum uric acid (mouse, acute hyperuricaemia model; oral, 2 mg/kg): 74.5%
CCNc1nc2c(c(N3CC(=O)Nc4cc(OC)ccc43)n1)CCC2  tumour weight decrease (mice, A-375/TxR xenograft; intravenous, 4 mg/kg twice weekly, 3 weeks; baseline: vehicle): 59.9%
CC(C)NCC(O)c1ccc(O)c(O)c1 (stereo not shown)  sarcomere length (ventricular cardiomyocytes, C57BL/6 mouse; dose not given, 0.792 s): 1.67 µm
CCCOc1ccc(-c2ccc(C#N)cc2)cc1  number of downregulated proteins (proteomics; rat placenta; 1 µg/mL, middle dose; baseline: control): 385
CCN(Cc1nc2c(N)nc3cc(-c4cc[nH]n4)ccc3c2[nH]1)C(C)=O  patients with increased cells (immunohistochemistry, item: MPO+ TANs; patients with advanced solid tumours, non-injected tumour lesions; dose not given, monotherapy): 27%
[Mn+2]  CD18-high cell fraction (flow cytometry; CD4-low T cells from PBMC, BALB/c mouse; dose not given; baseline: no Mn2+): 7.66 and 21 and 5.1 and 8.45 and 8.92 and 19.5 and 16 and 4.7

Some of these lines once more:
N=C(N)NCCC[C@@H](NC(=O)CCOCCOCCNC(=O)[C@H](CCCCNC(=O)CC[C@H](NC(=O)c1ccc(NCc2cnc3nc(N)[nH]c(=O)c3n2)cc1)C(=O)O)NC(=O)CO/N=C/[C@H](F)[C@@H](O)[C@H](O)[C@H](O)CO)C(=O)NCC(=O)N[C@H](CC(=O)O)C(N)=O [fluorine-18 labelled]  tumour washout (female nude mice, MDA-MB-231 xenograft, tumour; 2.5 h): 37%
CCNc1nc2c(c(N3CC(=O)Nc4cc(OC)ccc43)n1)CCC2  tumour weight decrease (mice, A-375/TxR xenograft; intravenous, 4 mg/kg twice weekly, 3 weeks; baseline: vehicle): 59.9%
OCC(O)CO  FGF21 level (ELISA; Mus musculus female wild type, serum; drinking water, 5% w/v, 2 days): 240 pg/mL and 202 pg/mL and 538 pg/mL and 264 pg/mL and 513 pg/mL and 235 pg/mL
